Measurements gathered from unrelated publications.
Every numbered part comes from another study and shows a few of its results, in no order.
UniProt P53350, sequence (whole entry, looked up): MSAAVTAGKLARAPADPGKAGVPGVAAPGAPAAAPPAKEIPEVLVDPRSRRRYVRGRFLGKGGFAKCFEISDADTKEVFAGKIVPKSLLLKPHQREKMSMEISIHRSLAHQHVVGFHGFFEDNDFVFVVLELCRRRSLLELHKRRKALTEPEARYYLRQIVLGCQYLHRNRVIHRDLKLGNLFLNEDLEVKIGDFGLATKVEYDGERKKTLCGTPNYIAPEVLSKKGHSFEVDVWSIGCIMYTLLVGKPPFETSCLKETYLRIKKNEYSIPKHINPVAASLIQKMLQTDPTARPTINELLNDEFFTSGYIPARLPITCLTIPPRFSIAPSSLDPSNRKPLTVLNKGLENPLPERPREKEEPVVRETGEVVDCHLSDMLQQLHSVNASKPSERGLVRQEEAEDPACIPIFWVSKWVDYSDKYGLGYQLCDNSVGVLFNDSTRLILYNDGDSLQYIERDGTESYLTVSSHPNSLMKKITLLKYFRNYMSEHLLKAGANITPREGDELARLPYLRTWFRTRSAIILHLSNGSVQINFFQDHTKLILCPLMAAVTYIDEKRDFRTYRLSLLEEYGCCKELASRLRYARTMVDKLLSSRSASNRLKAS

Set 1 — read-out: ligand displacement; concentration: 10 µM
Target: D(1A) dopamine receptor (DRD1, Homo sapiens, UniProt P21728)
UniProt P21728, sequence (whole entry, looked up): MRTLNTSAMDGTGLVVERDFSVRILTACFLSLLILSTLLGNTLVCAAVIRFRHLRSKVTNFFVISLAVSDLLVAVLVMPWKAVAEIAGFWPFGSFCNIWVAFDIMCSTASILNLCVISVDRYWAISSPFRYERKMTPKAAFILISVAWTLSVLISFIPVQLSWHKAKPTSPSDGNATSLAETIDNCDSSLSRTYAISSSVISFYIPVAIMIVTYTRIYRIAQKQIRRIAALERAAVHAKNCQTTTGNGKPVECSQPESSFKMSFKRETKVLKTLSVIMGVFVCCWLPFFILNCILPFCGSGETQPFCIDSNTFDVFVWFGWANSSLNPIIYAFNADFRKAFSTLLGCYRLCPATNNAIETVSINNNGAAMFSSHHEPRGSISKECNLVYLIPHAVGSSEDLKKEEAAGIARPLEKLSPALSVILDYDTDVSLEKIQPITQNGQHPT
SMILES | inhibition [%]
COCCOc1nc(-c2ccc(Cl)nc2)nc2c1CN(C(=O)c1ncn3ccccc13)CC2 | -8.34
CO[C@H]1CC[C@H](CNc2ccc(S(=O)(=O)NC(=O)c3ccc(N4CCN(CC5=C(c6ccc(Cl)cc6)CC(C)(C)CC5)CC4)cc3Oc3cnc4[nH]ccc4c3)cc2[N+](=O)[O-])CC1 | 28.2
O=C(NCCCC1CCCCC1)c1ccc(CNC(=O)c2cnn(-c3ccccc3)c2C(F)(F)F)cc1 | 5.56
CNC(=O)Nc1ccc2c(c1)CC[C@]21OC(=O)N(CC(=O)N(Cc2ccc(F)cc2)[C@@H](C)C(F)(F)F)C1=O | 9.97
Cc1noc([C@H]2C[C@@H](c3ccc(C(F)(F)F)cc3)CN(C(=O)N3CCS(=O)(=O)C3)C2)n1 | 10.6
O=C(NS(=O)(=O)c1ccc(NCC2CCOCC2)c([N+](=O)[O-])c1)c1ccc(N2CCN(Cc3ccc(C(F)(F)F)cc3-c3ccc(Cl)cc3)CC2)cc1Oc1cnc2[nH]ccc2c1 | 34.2
CNC(=N)NCCC[C@H](NC(=O)[C@H](CC(C)C)NC(=O)NNC(=O)[C@H](Cc1ccccc1)NC(=O)[C@H](CO)NC(=O)[C@H](CC(N)=O)NC(=O)[C@@H](Cc1ccncc1)NC(=O)[C@H](N)Cc1ccc(O)cc1)C(=O)N[C@@H](Cc1ccccc1)C(N)=O | -7.58
CCc1ccccc1C(=O)Nc1n[nH]c2c(C)c(F)c(C3C(C#N)=C(C)N(C)C(C)=C3C#N)cc12 | 67.4
CN(C)C(=O)c1sc2nc(N3CCC(S(C)(=O)=O)CC3)cc(C(F)(F)F)c2c1N | 1.22
Nc1nc(NCc2ccccc2)nc(-c2ccccc2CO)n1 | 33.7
O=S(=O)(NC1CCC(c2cc(F)ccc2F)(S(=O)(=O)c2ccc(Cl)cc2)CC1)C(F)(F)F (stereo not drawn) | 17.4
CN1CCN(C(=O)C(C)(C)c2ccc(C(=O)Nc3cn4cc(-c5cc(C(C)(C)C)cc(C(C)(C)C)c5)ccc4n3)cc2)CC1 | 58.2
CN(C)c1ncnc(-c2ccc3nc(Nc4cc(CN5CCN(C(=O)CC(F)(F)F)CC5)ccn4)[nH]c3c2)c1Cl | 23
C[C@H](c1ccnc(Nc2nc3ccc(-c4cc(N(C)C)ncn4)cc3[nH]2)c1)N1CCN(C(=O)CC(F)(F)F)CC1 | 1.63
Cc1c(NC(=O)c2cc(C(N)=O)nc3cc(F)ccc23)c(C(F)(F)F)nn1Cc1ccc(C#N)cc1 | -17.9

Set 2 — read-out: enzyme activity; action: inhibitor; concentration: 0.5 µM; relative to: control
Target: Calcium/calmodulin-dependent protein kinase type II subunit alpha (CAMK2A, Homo sapiens, UniProt Q9UQM7)
UniProt Q9UQM7, sequence (whole entry, looked up): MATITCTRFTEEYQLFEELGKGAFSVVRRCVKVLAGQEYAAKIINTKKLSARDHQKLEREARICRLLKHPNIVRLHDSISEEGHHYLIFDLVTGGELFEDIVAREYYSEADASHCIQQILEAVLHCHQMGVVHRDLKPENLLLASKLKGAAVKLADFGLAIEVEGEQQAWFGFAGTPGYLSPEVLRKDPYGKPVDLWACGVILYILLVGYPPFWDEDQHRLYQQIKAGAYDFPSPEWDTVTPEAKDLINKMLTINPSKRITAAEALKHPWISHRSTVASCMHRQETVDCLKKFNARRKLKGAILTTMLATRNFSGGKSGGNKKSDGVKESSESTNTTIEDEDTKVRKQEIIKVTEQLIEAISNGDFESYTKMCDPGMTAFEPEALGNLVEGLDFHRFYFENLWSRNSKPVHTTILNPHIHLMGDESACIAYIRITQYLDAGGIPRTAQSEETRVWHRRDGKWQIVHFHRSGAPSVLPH
Structure (SMILES) | remaining activity [%]
Ic1cccc(CSc2nnc(-c3ccncc3)o2)c1 | 92.3
c1ccc(-c2[nH]ncc2-c2ccnc3ccccc23)nc1 | 102
COc1cc2ncnc(Nc3ccc(O)c(Br)c3)c2cc1OC | 98
c1ccc(-c2cnc(Nc3ccc(OCCN4CCCC4)cc3)s2)cc1 | 62.9
Cn1nc2c3c(cccc31)C(=O)c1ccccc1-2 | 106
Cc1cn(-c2cc(NC(=O)c3ccc(C)c(Nc4nccc(-c5cccnc5)n4)c3)cc(C(F)(F)F)c2)cn1 | 96.1
O=c1cc(-c2cccc3c2Sc2ccccc2S3)oc(N2CCOCC2)c1 | 100
CCN(CC)C(=O)c1ccc(Nc2nc(OCC3CCCCC3)c3[nH]cnc3n2)cc1 | 105
O=C(Nc1cccc(Nc2nccc(Nc3cccc(C(F)(F)F)c3)n2)c1)C1CC1 | 98
Cc1cc2ncc(-c3ccccc3)nc2cc1C | 98.4
Cc1nc2cc3nc(-c4cccs4)cnc3cc2n1C | 105
N#Cc1c(NC(=O)c2cccc3ccccc23)sc2c1CCCC2 | 104
CCOc1nc(NC(=O)Cc2cc(OC)ccc2OC)cc(N)c1C#N | 104

Set 3 — method: phase 2a trial; host: idiopathic pulmonary fibrosis patients
SMILES: CC(C)n1cnc(-c2ccc(F)cc2)c1-c1ncc(C(=O)Nc2ccc(N3CCN(C)CC3)cc2)[nH]1
conditions | patients with cardiac disorders
60 mg once daily, adverse event grade 5 | 0%
dose not given, adverse event grade 2, all dose arms pooled | 0%
60 mg once daily, adverse event grade 4 | 0%
60 mg once daily, adverse event grade 3 | 0%
30 mg once daily, adverse event grade 5 | 0%
dose not given, adverse event grade 4, all dose arms pooled | 0%
30 mg once daily, adverse event grade 2 | 0%

Further values, each from its own experiment
Structure (SMILES) | target | assay | test system | conditions | measurement | value
COc1cc(C(=O)N2CCC(N3CCN(C)CC3)CC2)ccc1Nc1ncc2c(n1)N(C)c1ccccc1C(=O)N2C | Serine/threonine-protein kinase PLK1 (PLK1, Homo sapiens, UniProt P53350) | prometaphase arrest | HeLa S3 | 18 h | concentration causing mitotic arrest | 10 µM

A few entries again (set 2):
Structure (SMILES) | remaining activity [%]
Cn1nc2c3c(cccc31)C(=O)c1ccccc1-2 | 106
Cc1cn(-c2cc(NC(=O)c3ccc(C)c(Nc4nccc(-c5cccnc5)n4)c3)cc(C(F)(F)F)c2)cn1 | 96.1
O=c1cc(-c2cccc3c2Sc2ccccc2S3)oc(N2CCOCC2)c1 | 100
CCN(CC)C(=O)c1ccc(Nc2nc(OCC3CCCCC3)c3[nH]cnc3n2)cc1 | 105
